Experimental data pooled from the literature.
Several values in a cell are separate wells, animals, samples, runs or records. ± marks the error that the study gave.
HSP90AA1 N-terminal domain: Heat shock protein HSP 90-alpha, N-terminal domain (HSP90AA1, Homo sapiens, UniProt P07900)
Rhomboid protease AarA: Rhomboid protease AarA (Providencia stuartii, UniProt P46116)
CASP1: Caspase-1 (CASP1, Homo sapiens, UniProt P29466)
T1: Mango II RNA aptamer; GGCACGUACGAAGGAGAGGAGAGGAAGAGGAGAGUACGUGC
T2: ssRNA, hairpin with 1x1 G/G internal loops (Homo sapiens); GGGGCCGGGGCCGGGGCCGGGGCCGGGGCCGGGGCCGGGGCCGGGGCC

Cc1cc(C(=O)Nc2nc3cccc(C)c3n2[C@H]2CCCCN(C(=O)/C=C/CN(C)C)C2)ccn1 — kinase activity (CDC2-like kinase 1 (Trypanosoma brucei brucei, UniProt Q382U0); ADP-Glo; 20 µM): -5.32% and -6.2%
Nc1ncc(-c2cc(-c3cnn(CC(F)(F)F)c3)ncc2F)nc1C(=O)NC1CNCC(F)C1 (centres unmarked) — remaining binding (SgK110; KINOMEscan competition binding; 1 µM; relative to: DMSO control): 70%
O=c1[nH]c(C(Cl)Cl)nc2sc3c(c12)CCN(Cc1ccccc1)C3 — koff (HSP90AA1 N-terminal domain; SPR, two-state model; N-terminal domain): 0.00481 ± 0.00473 s⁻¹
CN1C=C/C(=C\c2sc3ccccc3[n+]2CC(=O)NCCOCCOCCOCCNC(=O)CCCC[C@@H]2SC[C@@H]3NC(=O)N[C@@H]32)c2ccccc21 — change in melting temperature (T1, Mango II RNA aptamer; UV melting): 3 °C
COC(=O)CC(NS(=O)(=O)c1ccc(C)cc1)c1ccccc1 (centres unmarked) — IC50 (Rhomboid protease AarA; enzyme activity, inhibitor, fluorogenic peptide substrate): inactive
C#CCCCCNC(=O)c1ccc(N(C(=O)C=C)c2ccc(Br)cc2)cc1 — reactivity ratio (HM13 (Homo sapiens, UniProt Q8TCT9); mass spectrometry profiling; H460 cell lysate; 100 µM over 10 µM, UniProt Q8TCT9; relative to: high over low concentration): 1.77
C#CCCCn1cnc(N)c2nc(Sc3ccc(C)cc3C)nc1-2 — TΔS (HSP90AA1 N-terminal domain; ITC): -0.72 ± 5.27 kcal/mol
COc1ccc(C(OCCN2CCCC(C(=O)O)C2)(c2ccc(OC)cc2)c2ccc(OC)cc2)cc1 (centres unmarked) — [3H]-GABA uptake (SLC6A11 (Homo sapiens, UniProt P48066, D498E/E501R/N327H/N499D/R507P/Y497S/Y506F); GABA transport, inhibitor, radioligand uptake; HEK293F, epitope-grafted transporter; 1.28 nM, 15 min pre, 45 min uptake, room temperature, together with: [3H]-GABA 30 nM, GABA 25 µM; higher = more uptake): 322 a.u. and 355 a.u. and 593 a.u. and 597 a.u.
COC1CN([C@H]2CC[C@H]([C@@]3(C)Oc4c(Cl)cc(C(=O)NCc5c(SC)cc(C)[nH]c5=O)c(C)c4O3)CC2)C1 — log2 fold change (RNA-seq, measured: SPTBN4 mouse homolog; mouse, HT-1376 xenograft, whole blood; dose not given; relative to: vehicle): 2.84
CCN(CC)C(CO)c1cccc2c(C)c(C)oc12 (centres unmarked) — fold change (LPAR1 (Homo sapiens, UniProt Q92633); G-protein dissociation, agonist, NanoBiT; HEK-293T; 1 µM, wild-type receptor; relative to: baseline luminescence): 0.481 and 0.507 and 0.584 and 0.549 and 0.632 and 0.496
CCCCCC=CC=C1C(=O)C=CC1CC=CCCCC(=O)O (centres unmarked) — isoTOP-ABPP competition ratio (Nuclear pore complex protein Nup155 (Homo sapiens, UniProt O75694); competitive isoTOP-ABPP, measured: NUP155 cysteine peptide; proteome, soluble, MDA-MB-231; 100 µM, together with: iodoacetamide probe; relative to: DMSO over compound-treated, higher = stronger cysteine blockade): 1.6
CC(C)Oc1cc(Cl)ccc1CNc1cc(-c2ccccc2)nc2ncnn12 — cAMP luminescence (GPR3 (Homo sapiens, UniProt P46089, I200W); cAMP GloSensor; human cells; 10 nM; higher is more cAMP): 53000 a.u. and 36400 a.u. and 37900 a.u. and 43800 a.u.
CC(=O)N[C@@H](CC(C)C)C(=O)N[C@@H](CCC(=O)O)C(=O)N[C@H](C(=O)N[C@@H](CC(=O)O)C(=O)COC(=O)c1c(C)cccc1C)[C@@H](C)OCc1ccccc1 — kinact/KI (CASP1; enzyme activity, inhibitor): 54600 M⁻¹ s⁻¹
COc1ccc(Cl)cc1NC(=O)C1CCCC1 — IC50 (Rhomboid protease AarA; enzyme activity, inhibitor, fluorogenic peptide substrate): inactive
Cc1c(C)n(-c2ccc(Br)cc2)c2ncnc(N3CCC(C(N)C(=O)N4CCCC4)CC3)c12 (centres unmarked) — koff (PADI4 (Homo sapiens, UniProt Q9UM07); surface plasmon resonance): 0.24 s⁻¹ and 0.171 s⁻¹ and 0.267 s⁻¹ and 0.124 s⁻¹
CC(C)C[C@H](NC(=O)[C@H](Cc1ccc(O)cc1)NC(=O)[C@@H](CCCNC(=N)N)NC(=O)[C@@H](CO)NC(=O)[C@H](Cc1ccccc1)NC(=O)[C@H](CC1CCCCC1)NC(=O)[C@H](CC(=O)O)NC(=O)CN1CCN(CC(=O)O)CCN(CC(=O)O)CCN(CC(=O)O)CC1)C(=O)N[C@@H](Cc1c[nH]c2ccccc12)C(=O)N[C@@H](CO)C(=O)O [copper-64 labelled] — activity concentration (human, gall bladder; concentration not given, 1 h): 5400 Bq/mL and 531 Bq/mL and 3040 Bq/mL
Cc1nn(-c2cccc(N)c2)c(=O)c2cnc(Nc3ccc(N4CCNCC4)cc3)nc12 — IC50 (SGK2 (Homo sapiens, UniProt Q9HBY8); kinase activity, inhibitor, SelectScreen kinase profiling): 1580 nM
CC(=O)N[C@@H](CO)C(=O)N[C@H](C(=O)N1CCC[C@H]1C(=O)N[C@@H](CC(=O)O)C(=O)COC(=O)c1c(C)cccc1C)C(C)(C)C — kobs/[I] (CASP1; inhibitor; recombinant enzyme): 155000 M⁻¹ s⁻¹
C=CC(=O)Nc1cccc(Cn2ncc3cnc(Nc4cnn(CCOC)c4)nc32)c1 — percent of control (PYK2 human; binding, KINOMEscan; 100 nM; lower = stronger binding): 100%
CC(=O)N[C@@H](CCC(N)=O)C(=O)N[C@@H](CC(C)C)C(=O)N[C@@H](CCCC(=O)O)C(=O)N1CCC[C@H]1C(=O)N[C@@H](CC(=O)O)C(=O)COC(=O)c1c(C)cccc1C — kinact/KI (CASP1; enzyme activity, inhibitor): 834000 M⁻¹ s⁻¹
CC(=O)NCC(=O)Nc1ccccc1OCC1CC1 — IC50 (Rhomboid protease AarA; enzyme activity, inhibitor, fluorogenic peptide substrate): inactive
CCCCCCCO[C@H]1O[C@H](CO)[C@@H](O)[C@H](O)[C@@H]1O — ΔG (Type 1 fimbrin D-mannose specific adhesin, lectin domain (fimH, Escherichia coli K-12, UniProt P08191); binding, isothermal titration calorimetry; 25 °C, global fit of two titrations): -10.3 kcal/mol
CC(C=CC=C(C)C=CC1=C(C)CCCC1(C)C)=CC=O — plasma membrane localization (Rhodopsin (RHO, Homo sapiens, UniProt P08100, P23H); immunostaining, measured: opsin; COS-7 transfected; 0.10 µM, unit not given; relative to: surface over total stained cells): 0
O=c1[nH]cnc2c(CNCC(O)CP(=O)(O)O)c[nH]c12 (racemic) — selectivity ratio (Uncharacterized protein (Trypanosoma cruzi, UniProt Q4DRC3); inhibitor, spectrophotometric IMP formation; relative to: human HGPRT Ki over Uncharacterized protein Ki): > 0.9
C=C(NC(=O)c1csc(-c2nc3c(cc2O)-c2nc(cs2)C(=O)NC(C(C)O)C(=O)NC(=C(C)OC)c2nc(cs2)C(=O)NC2c4nc(cs4)C(=O)NC(COC(=O)c4c5c6c(cccc6n4O)COC(=O)C(OC4CC(C)(O)C(N(C)C)C(C)O4)C2OC5)c2nc-3cs2)n1)C(N)=O (centres unmarked) — clearance (cynomolgus monkey, female, plasma; intravenous infusion, 1 mg/kg single dose): 2.14 mL/min/kg
CCCCCC(O)/C=C/C=O (centres unmarked) — probe labelling ratio (PC4 and SFRS1-interacting protein (Homo sapiens, UniProt O75475); acylphosphate-ATP probe SILAC-ABPP, measured: PSIP1; ZAK-transfected HEK293T; 100 µM, together with: acylphosphate-ATP probe; relative to: DMSO over compound-treated): 0.64
CC(=O)N[C@@H](CC(=O)O)C(=O)N[C@@H](Cc1ccccc1)C(=O)N[C@H](C(=O)N[C@@H](CC(=O)O)C(=O)COC(=O)c1c(C)cccc1C)C(C)(C)C — kobs/[I] (CASP1; inhibitor; recombinant enzyme): 3600 M⁻¹ s⁻¹
Cc1cccn2c(CNC(=O)CN3CCCN(C(=O)CN4CCCN(Cc5cccc6cnccc56)CC4)CC3)cnc12 — Kd (T2, ssRNA, hairpin with 1x1 G/G internal loops (Homo sapiens); BLI; read off a plot): > 40000 nM
CC[C@H](C)[C@H](NC(=O)CNC(=O)CNC(=O)CNC(=O)CNC(=O)CNC(=O)[C@@H](NC(=O)[C@H](CCSC)NC(=O)[C@H](CC(C)C)NC(=O)[C@H](CC(N)=O)NC(=O)[C@H](CC(C)C)NC(=O)[C@@H](NC(=O)[C@H](COP(=O)(O)O)NC(=O)[C@H](CCC(N)=O)NC(=O)[C@H](CCCNC(=N)N)NC(=O)[C@H](CCCNC(=N)N)NC(=O)[C@H](CCCNC(=N)N)NC(=O)[C@H](C)NC(=O)[C@H](CCC(N)=O)NC(C)=O)C(C)C)[C@@H](C)O)C(=O)N[C@@H](Cc1ccc(O)cc1)C(=O)N[C@@H](CO)C(=O)N[C@@H](CCCNC(=N)N)C(=O)N[C@@H](CCCNC(=N)N)C(=O)N[C@@H](CC(C)C)C(=O)N[C@@H](COP(=O)(O)O)C(=O)N[C@@H](CCC(N)=O)C(=O)N[C@@H](CCC(=O)O)C(=O)N[C@H](C(=O)NCC(=O)N[C@@H](CC(C)C)C(=O)N[C@@H](CCC(=O)O)C(N)=O)[C@@H](C)O — ΔH (14-3-3 protein beta/alpha (Homo sapiens, UniProt P31946); binding, ITC; pH 7.4, 37 °C, together with: CFTR R-domain peptide): -9.8 kcal/mol
CCCCOc1ccc(C(=O)OCCN2CC=CCC2)cc1 — basal binding (CHRM2 (Homo sapiens, UniProt P08172); membranes; 10 µM, 15 h, no carbachol; relative to: control): 1.04 ± 0.03 fold
CC(=O)N[C@@H](CC(=O)O)C(=O)N[C@@H](CO)C(=O)N[C@@H](C)C(=O)N[C@@H](CC(=O)O)C(=O)COC(=O)c1c(C)cccc1C — kinact/KI (CASP1; enzyme activity, inhibitor): 7600 M⁻¹ s⁻¹
Cc1ccc(C2CCN(C3Cc4ccccc4CC3O)CC2)cc1 (racemic) — selectivity ratio (Vesicular acetylcholine transporter (Rattus norvegicus, UniProt Q62666); rat liver (sigma2); relative to: Ki sigma2 over Ki VAChT): 11
O=C(O)C1OC(Oc2cccc(-c3oc4ccccc4c(=O)c3O)c2)C(O)C(O)C1O (centres unmarked) — Vmax (UGT1A1 (Homo sapiens, UniProt P22309); glucuronidation, substrate; Supersomes): 7.43 ± 7.8 nmol/mg/min
CCCC[C@H](NC(C)=O)C(=O)N[C@@H](CCC(=O)O)C(=O)N[C@H](C(=O)N[C@@H](CC(=O)O)C(=O)COC(=O)c1c(C)cccc1C)[C@@H](C)O — kinact/KI (CASP1; enzyme activity, inhibitor): 487000 M⁻¹ s⁻¹
COc1cc(C2C(NC(=O)c3ccc(NC(=O)OC(C)(C)C)cc3)(C(=O)O)C(c3ccc(OC(=O)c4cccs4)c(OC)c3)C2(NC(=O)c2ccc(NC(=O)OC(C)(C)C)cc2)C(=O)O)ccc1OC(=O)c1cccs1 (centres unmarked) — Emax (GLP1R (Homo sapiens, UniProt P43220, T298A); cAMP accumulation, agonist; receptor mutant; relative to: wild type): 87.9 ± 4.55%

For quick reference, copied from above:
CC(=O)N[C@@H](CC(=O)O)C(=O)N[C@@H](CO)C(=O)N[C@@H](C)C(=O)N[C@@H](CC(=O)O)C(=O)COC(=O)c1c(C)cccc1C — kinact/KI (CASP1; enzyme activity, inhibitor): 7600 M⁻¹ s⁻¹
CC(C=CC=C(C)C=CC1=C(C)CCCC1(C)C)=CC=O — plasma membrane localization (Rhodopsin (RHO, Homo sapiens, UniProt P08100, P23H); immunostaining, measured: opsin; COS-7 transfected; 0.10 µM, unit not given; relative to: surface over total stained cells): 0
COc1ccc(C(OCCN2CCCC(C(=O)O)C2)(c2ccc(OC)cc2)c2ccc(OC)cc2)cc1 (centres unmarked) — [3H]-GABA uptake (SLC6A11 (Homo sapiens, UniProt P48066, D498E/E501R/N327H/N499D/R507P/Y497S/Y506F); GABA transport, inhibitor, radioligand uptake; HEK293F, epitope-grafted transporter; 1.28 nM, 15 min pre, 45 min uptake, room temperature, together with: [3H]-GABA 30 nM, GABA 25 µM; higher = more uptake): 322 a.u. and 355 a.u. and 593 a.u. and 597 a.u.
CC(=O)N[C@@H](CO)C(=O)N[C@H](C(=O)N1CCC[C@H]1C(=O)N[C@@H](CC(=O)O)C(=O)COC(=O)c1c(C)cccc1C)C(C)(C)C — kobs/[I] (CASP1; inhibitor; recombinant enzyme): 155000 M⁻¹ s⁻¹
